Experimental data pooled from the literature.
Lines come from different studies, so protocols differ. Values joined by “and” are separate records of one study, mostly repeats; a detail may differ. ± marks the error that the study gave.
Cell line: A549

| Compound | test | setting | IC50 |
| --- | --- | --- | --- |
| COc1cc(C2=CCCc3c2ccc(OC)c3OCc2ccc([N+](=O)[O-])cc2)cc(OC)c1OC | cell growth, SRB | 4 h exposure then 120 h oxic, oxic exposure then drug removal | 0.25 ± 0.02 µM |
| COc1ccc(-c2cc(-c3ccc(-n4cccc4)cc3)nc(N)n2)cc1 | viability, MTT | 24 h | 105 µM |
| COc1ccc2nccc(Cc3cccc(-c4ccc(COP(=O)(O)O)cc4)c3)c2c1 | mitochondrial oxygen consumption, Seahorse XF96 | – | 3 µM |
| Nc1nc(Nc2ccc3c(c2)CC[C@@H](N2CCCC2)CC3)nn1-c1cc2c(nn1)-c1ccccc1CCC2 | inhibitor, Western blot, measured: phospho-Akt | – | 2.37 µM |
| COc1cc(C2=CCCc3c2ccc(OC)c3OC(C)c2ccc([N+](=O)[O-])s2)cc(OC)c1OC (stereo not drawn) | – | 4 h, anoxic | 0.86 ± 0.42 µM |
| CC(O)[C@@H]1CCCN1C(=O)[C@@H]1CCCN1C(=O)OC(C)(C)C (mixture of isomers) | cell growth, sulforhodamine B | – | 0.59 µM and 0.515 µM |
| COc1ccc2c(c1NC(=O)OCc1cnc([N+](=O)[O-])n1C)CCC=C2c1cc(OC)c(OC)c(OC)c1 | cell growth, SRB | 4 h exposure then 120 h oxic, oxic exposure then drug removal | 5.59 ± 1.39 µM |
| COc1ccc2nccc(Cc3cccc(-c4cnn(C5COC5)c4)c3)c2c1 | mitochondrial oxygen consumption rate, Seahorse XF96 | – | 1.9 µM |
| CC(=O)[C@@H]1CCCN1C(=O)[C@@H]1CCCN1C(=O)OC(C)(C)C | cell growth, sulforhodamine B | – | 4.39 µM and 5.08 µM and 6.12 µM |
| Cc1nc(N(Cc2ccccc2)c2ccc3c(c2)/C(=C/c2ccccc2)C(=O)N3Cc2ccccc2)c2ccccc2n1 (mixture of isomers) | cell viability, MTT | – | 0.2 to 0.98 µM |
| COc1ccc(Cc2nccc3cc(OC)c(OC)cc23)cc1OC | mitochondrial oxygen consumption, Seahorse XF96 | – | 18 µM |
| C=C1C[C@](OC)([C@H](OCOC/C=C/B2OC(CC)(CC)C(CC)(CC)O2)C(=O)NC[C@@H]2C[C@@H](OC)C(C)(C)[C@@H](C[C@@H](COC)OC)O2)O[C@H](C)[C@@H]1C | cell viability, sulforhodamine B | 72 h, 37 °C, without H2O2 | 0.026 ± 0.006 µM |

Repeated from above:
| Compound | test | setting | IC50 |
| --- | --- | --- | --- |
| C=C1C[C@](OC)([C@H](OCOC/C=C/B2OC(CC)(CC)C(CC)(CC)O2)C(=O)NC[C@@H]2C[C@@H](OC)C(C)(C)[C@@H](C[C@@H](COC)OC)O2)O[C@H](C)[C@@H]1C | cell viability, sulforhodamine B | 72 h, 37 °C, without H2O2 | 0.026 ± 0.006 µM |
